Published values gathered from unrelated publications.
Each line is one published result; not all experiments were run side by side.
Target: Adenosine receptor A2a (ADORA2A, Homo sapiens, UniProt P29274)

Structure (SMILES) = CC(=O)c1cnc(N)nc1N1CC[C@H]1c1nn2ccc(Cl)c2c(=O)n1-c1ccccc1; observed = ligand displacement; technique = radioligand; concentration = 10 µM; measurement = inhibition; result = 21%
Structure (SMILES) = Cc1[nH]nc2c1N=C(c1ccccc1Cl)c1cnc(N3CCOCC3)cc1N2; observed = ligand displacement; concentration = 10 µM; measurement = inhibition; result = 58%
Structure (SMILES) = COc1ccc(C#CC2=C[C@H]3C[C@@]4(OC(=O)C=C24)[C@H]2CC[C@H](C(OC)OC)N32)cc1; observed = ligand displacement; technique = radioligand; concentration = 10 µM; measurement = inhibition; result = 4%
Structure (SMILES) = C[Si](C)(C)C[C@H](CN)CC(=O)O; observed = ligand displacement; technique = radioligand; concentration = 250 µM; measurement = inhibition; result = -5%
Structure (SMILES) = CCC(=O)N(C)c1ccc(Cl)c(Cl)c1; observed = ligand displacement; technique = radioligand; concentration = 10 µM; measurement = inhibition; result = < 10%
Structure (SMILES) = C[Si]1(C[C@H](CN)CC(=O)O)CCCC1; observed = ligand displacement; technique = radioligand; concentration = 70 µM; measurement = inhibition; result = -8%
Structure (SMILES) = OCC1OC(n2cnc3c(NCc4ccc(Br)s4)ncnc32)C(O)C1O (stereo not shown); observed = binding; technique = radioligand binding; cell line = CHO cells; measurement = Hill coefficient; result = 0.72
Structure (SMILES) = COc1ncc2nc(C)n(Cc3ncc(S(N)(=O)=O)cc3F)c2c1-c1ccccc1; action = antagonist; technique = cell-based; concentration = 10 µM; measurement = inhibition; result = 1.17%
Structure (SMILES) = O=C(O)COc1cccc(NC(=O)c2cc(-c3cccc(F)c3)ccc2F)c1; observed = ligand displacement; technique = radioligand; concentration = 10 µM; measurement = inhibition; result = 2%
Structure (SMILES) = COCC(=O)N1CCc2cc(-c3csc(NC(=O)c4cc(OC)cc(OC)c4)n3)ccc21; observed = ligand displacement; technique = radioligand; concentration = 10 µM; measurement = inhibition; result = 24%
Structure (SMILES) = Cn1ccc2cc(-n3c(=O)[nH]c4sc5c(c4c3=O)CCCC5)ccc21; observed = ligand displacement; technique = radioligand; concentration = 10 µM; measurement = inhibition; result = 4%
Structure (SMILES) = CO[C@@H](C)c1c(NC(=O)Nc2cnc(-n3nccn3)c(C(F)(F)F)c2)cnc2sc(C)nc12; observed = ligand displacement; technique = radioligand; concentration = 10 µM; measurement = inhibition; result = 30.7%
Structure (SMILES) = O=C1c2sc(-c3ccc(N4CCC(CO)CC4)nc3F)nc2CCN1c1cccnc1; observed = ligand displacement; technique = radioligand; concentration = 1 µM; measurement = inhibition; result = 4%

Excerpt of the above:
Structure (SMILES) = CO[C@@H](C)c1c(NC(=O)Nc2cnc(-n3nccn3)c(C(F)(F)F)c2)cnc2sc(C)nc12; observed = ligand displacement; technique = radioligand; concentration = 10 µM; measurement = inhibition; result = 30.7%
